Published values gathered from unrelated publications.
Numbered parts are unrelated; each lists some results of a single study. “And” joins repeats or separate records; there may be more than shown.
Chain of UniProt P19784 (whole entry, looked up): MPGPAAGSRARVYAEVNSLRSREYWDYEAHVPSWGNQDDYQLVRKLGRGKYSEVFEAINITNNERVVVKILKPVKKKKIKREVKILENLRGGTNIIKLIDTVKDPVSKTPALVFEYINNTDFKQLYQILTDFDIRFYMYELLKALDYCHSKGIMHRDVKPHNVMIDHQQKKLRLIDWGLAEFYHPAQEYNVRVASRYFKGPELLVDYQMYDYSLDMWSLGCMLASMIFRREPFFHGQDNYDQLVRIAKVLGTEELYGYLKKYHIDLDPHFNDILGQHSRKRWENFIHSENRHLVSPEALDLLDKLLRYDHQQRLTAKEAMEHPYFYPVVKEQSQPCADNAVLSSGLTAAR
Chain of UniProt Q08881 (whole entry, looked up): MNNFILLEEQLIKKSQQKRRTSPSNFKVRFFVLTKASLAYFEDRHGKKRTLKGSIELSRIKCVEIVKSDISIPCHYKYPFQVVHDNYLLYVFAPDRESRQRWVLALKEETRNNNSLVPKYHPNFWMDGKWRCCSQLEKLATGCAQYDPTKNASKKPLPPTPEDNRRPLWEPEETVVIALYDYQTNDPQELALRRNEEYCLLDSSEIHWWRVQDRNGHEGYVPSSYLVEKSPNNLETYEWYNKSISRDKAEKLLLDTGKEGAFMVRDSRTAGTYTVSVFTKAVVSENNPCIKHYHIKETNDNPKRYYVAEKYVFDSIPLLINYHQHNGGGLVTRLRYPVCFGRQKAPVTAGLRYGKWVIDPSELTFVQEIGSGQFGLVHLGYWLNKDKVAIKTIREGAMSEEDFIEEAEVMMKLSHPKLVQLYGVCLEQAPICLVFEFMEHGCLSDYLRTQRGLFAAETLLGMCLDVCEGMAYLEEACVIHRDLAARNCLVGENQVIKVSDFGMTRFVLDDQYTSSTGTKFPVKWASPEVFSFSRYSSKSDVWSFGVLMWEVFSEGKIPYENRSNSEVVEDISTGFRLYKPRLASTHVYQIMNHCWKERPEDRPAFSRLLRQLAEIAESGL
Chain of UniProt P22455 (whole entry, looked up): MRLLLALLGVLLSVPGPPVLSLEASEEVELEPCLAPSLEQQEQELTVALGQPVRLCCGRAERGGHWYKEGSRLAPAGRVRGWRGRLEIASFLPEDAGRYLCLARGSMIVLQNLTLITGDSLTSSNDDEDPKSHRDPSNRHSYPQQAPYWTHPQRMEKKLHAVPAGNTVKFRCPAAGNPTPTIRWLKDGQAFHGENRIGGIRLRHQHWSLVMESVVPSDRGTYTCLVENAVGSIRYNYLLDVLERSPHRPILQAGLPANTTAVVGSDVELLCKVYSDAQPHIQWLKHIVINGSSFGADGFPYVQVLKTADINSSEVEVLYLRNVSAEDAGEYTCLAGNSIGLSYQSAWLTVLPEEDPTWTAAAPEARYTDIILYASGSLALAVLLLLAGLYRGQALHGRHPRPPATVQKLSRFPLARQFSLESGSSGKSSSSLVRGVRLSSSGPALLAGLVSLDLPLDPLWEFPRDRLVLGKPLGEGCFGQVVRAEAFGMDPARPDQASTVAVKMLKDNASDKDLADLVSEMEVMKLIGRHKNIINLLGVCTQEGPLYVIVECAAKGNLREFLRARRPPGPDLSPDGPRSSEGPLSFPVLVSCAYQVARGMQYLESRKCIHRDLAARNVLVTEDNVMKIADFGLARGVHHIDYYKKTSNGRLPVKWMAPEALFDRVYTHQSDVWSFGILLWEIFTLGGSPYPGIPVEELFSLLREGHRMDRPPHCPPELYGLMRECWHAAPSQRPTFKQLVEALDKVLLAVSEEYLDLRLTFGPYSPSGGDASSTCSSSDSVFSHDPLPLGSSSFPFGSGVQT
Chain of UniProt Q9UF33 (whole entry, looked up): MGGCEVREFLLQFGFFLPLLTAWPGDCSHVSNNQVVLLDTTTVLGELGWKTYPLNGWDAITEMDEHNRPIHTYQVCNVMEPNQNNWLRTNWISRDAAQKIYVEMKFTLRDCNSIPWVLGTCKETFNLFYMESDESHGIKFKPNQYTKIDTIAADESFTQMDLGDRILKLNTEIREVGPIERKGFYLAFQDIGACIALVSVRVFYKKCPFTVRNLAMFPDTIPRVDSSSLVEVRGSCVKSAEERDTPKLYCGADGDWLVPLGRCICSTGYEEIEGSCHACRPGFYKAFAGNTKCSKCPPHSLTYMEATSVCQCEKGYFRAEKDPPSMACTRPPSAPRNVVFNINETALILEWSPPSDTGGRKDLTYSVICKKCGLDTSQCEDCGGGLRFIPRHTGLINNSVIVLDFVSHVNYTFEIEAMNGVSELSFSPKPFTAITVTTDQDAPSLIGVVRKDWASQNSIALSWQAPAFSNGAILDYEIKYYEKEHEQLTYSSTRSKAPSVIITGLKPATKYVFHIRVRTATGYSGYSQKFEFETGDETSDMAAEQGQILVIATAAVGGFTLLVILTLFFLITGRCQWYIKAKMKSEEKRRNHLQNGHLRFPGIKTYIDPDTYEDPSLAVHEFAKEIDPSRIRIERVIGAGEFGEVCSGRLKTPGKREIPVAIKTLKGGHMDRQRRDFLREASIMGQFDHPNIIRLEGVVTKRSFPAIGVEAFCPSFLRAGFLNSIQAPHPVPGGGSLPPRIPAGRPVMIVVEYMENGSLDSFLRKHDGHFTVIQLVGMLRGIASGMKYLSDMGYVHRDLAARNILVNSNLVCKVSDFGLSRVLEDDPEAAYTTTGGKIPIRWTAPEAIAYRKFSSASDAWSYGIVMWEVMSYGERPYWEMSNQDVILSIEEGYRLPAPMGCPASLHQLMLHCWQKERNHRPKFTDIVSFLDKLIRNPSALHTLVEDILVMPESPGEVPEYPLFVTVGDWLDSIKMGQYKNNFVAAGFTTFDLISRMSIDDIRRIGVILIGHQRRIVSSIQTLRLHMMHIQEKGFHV
Chain of UniProt O43283 (whole entry, looked up): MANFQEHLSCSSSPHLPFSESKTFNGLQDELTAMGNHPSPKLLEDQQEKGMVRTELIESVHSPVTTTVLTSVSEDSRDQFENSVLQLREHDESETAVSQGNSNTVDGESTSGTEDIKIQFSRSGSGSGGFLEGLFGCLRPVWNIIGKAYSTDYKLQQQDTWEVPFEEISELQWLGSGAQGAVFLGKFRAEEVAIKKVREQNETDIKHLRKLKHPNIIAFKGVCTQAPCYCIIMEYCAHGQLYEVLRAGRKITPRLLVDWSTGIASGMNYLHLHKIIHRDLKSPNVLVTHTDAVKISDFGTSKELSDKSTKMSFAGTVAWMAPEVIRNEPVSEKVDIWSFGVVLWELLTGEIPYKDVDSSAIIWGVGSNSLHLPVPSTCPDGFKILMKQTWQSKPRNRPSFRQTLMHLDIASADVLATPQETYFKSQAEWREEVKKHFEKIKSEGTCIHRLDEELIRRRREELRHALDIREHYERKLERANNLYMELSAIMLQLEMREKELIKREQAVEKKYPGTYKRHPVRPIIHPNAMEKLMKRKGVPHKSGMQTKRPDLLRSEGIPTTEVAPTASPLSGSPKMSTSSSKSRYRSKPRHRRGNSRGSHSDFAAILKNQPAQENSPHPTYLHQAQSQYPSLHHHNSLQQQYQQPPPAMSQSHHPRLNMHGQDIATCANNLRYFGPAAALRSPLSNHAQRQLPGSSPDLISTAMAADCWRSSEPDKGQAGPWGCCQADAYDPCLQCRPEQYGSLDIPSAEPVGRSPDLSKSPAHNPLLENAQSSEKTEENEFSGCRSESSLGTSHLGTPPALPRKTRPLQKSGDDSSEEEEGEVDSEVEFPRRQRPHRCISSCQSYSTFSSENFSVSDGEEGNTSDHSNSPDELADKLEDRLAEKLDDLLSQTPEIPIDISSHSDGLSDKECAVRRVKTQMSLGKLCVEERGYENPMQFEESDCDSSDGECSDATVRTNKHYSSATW
Chain of UniProt P42685 (whole entry, looked up): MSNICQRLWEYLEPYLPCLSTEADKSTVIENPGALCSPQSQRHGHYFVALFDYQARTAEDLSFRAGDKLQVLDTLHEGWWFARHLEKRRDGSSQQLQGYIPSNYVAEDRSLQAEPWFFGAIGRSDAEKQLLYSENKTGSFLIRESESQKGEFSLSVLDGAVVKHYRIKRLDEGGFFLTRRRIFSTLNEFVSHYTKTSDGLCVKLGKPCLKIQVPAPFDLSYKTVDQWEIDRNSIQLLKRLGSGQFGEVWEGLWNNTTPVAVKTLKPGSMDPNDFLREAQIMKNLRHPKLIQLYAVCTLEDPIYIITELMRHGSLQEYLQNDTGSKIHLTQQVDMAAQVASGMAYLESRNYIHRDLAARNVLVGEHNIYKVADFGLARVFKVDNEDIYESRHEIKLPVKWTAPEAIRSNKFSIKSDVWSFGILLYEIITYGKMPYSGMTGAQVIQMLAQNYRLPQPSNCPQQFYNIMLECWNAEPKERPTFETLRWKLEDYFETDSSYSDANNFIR

Study 1 — observed: binding; mode: competitor; method: NanoBRET; cells: HEK293; measurement: normalized BRET
SMILES: CC(=O)N1CCN(c2nc(OC[C@@H]3CCCN3C)nc3c2CCN(c2cccc4cccc(Cl)c24)C3)C[C@@H]1CC#N
KRAS Q61R: GTPase KRas (KRAS, Homo sapiens, UniProt P01116, Q61R)
KRAS G13D: GTPase KRas (KRAS, Homo sapiens, UniProt P01116, G13D)
target = KRAS Q61R; conditions = 15.2 nM; result = 103% and 98.8%
target = KRAS G13D; conditions = 412 nM; result = 71.9% and 75.3% and 83.8%
target = KRAS Q61R; conditions = 137 nM; result = 102% and 95.3% and 107%
target = KRAS G13D; conditions = 137 nM; result = 87% and 94.2% and 97.6%
target = KRAS G13D; conditions = 5.08 nM; result = 105% and 99.2% and 107%
target = GTPase KRas (KRAS, Homo sapiens, UniProt P01116, G12D); conditions = 137 nM; result = 94% and 91.7% and 91.1%
target = KRAS G13D; conditions = 1.69 nM; result = 102% and 98.1%
target = KRAS G13D; conditions = 45.7 nM; result = 91.3% and 98% and 104%

Study 2 — observed: enzyme activity; mode: inhibitor; concentration: 0.5 µM; reference: control; measurement: remaining activity
Target: Serine/threonine-protein kinase PAK 5 (PAK5, Homo sapiens, UniProt Q9P286)
Chain of UniProt Q9P286 (whole entry, looked up): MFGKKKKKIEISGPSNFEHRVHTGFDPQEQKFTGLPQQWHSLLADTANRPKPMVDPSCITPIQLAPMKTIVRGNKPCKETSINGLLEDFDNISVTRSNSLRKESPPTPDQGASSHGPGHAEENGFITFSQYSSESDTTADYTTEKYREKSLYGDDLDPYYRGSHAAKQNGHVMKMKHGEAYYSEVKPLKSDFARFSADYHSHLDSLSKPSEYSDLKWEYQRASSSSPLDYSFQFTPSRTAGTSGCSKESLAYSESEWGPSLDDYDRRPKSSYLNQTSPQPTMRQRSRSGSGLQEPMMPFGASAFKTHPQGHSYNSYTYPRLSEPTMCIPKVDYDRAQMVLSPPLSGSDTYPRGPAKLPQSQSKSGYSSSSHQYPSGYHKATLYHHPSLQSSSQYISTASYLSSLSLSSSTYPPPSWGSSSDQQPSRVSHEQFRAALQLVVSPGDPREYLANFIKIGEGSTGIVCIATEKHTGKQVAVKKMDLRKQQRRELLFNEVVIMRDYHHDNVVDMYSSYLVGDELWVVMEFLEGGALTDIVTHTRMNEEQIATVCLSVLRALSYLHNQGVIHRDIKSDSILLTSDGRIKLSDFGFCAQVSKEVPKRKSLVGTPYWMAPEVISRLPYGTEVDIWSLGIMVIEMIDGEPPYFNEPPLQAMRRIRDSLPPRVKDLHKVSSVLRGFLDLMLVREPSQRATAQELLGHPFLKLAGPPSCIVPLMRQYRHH
Structure (SMILES) = c1ccc(-c2[nH]ncc2-c2ccnc3ccccc23)nc1; result = 97.1%
Structure (SMILES) = CCOc1nc(NC(=O)Cc2cc(OC)ccc2OC)cc(N)c1C#N; result = 107%
Structure (SMILES) = c1ccc(-c2cnc(Nc3ccc(OCCN4CCCC4)cc3)s2)cc1; result = 87.2%
Structure (SMILES) = Nc1cccc(-c2cc3c(Oc4cccc(O)c4)ncnc3[nH]2)c1; result = 86.9%
Structure (SMILES) = C[C@@H]1CCN(C(=O)CC#N)C[C@@H]1N(C)c1ncnc2[nH]ccc12; result = 93.6%
Structure (SMILES) = N#Cc1c(NC(=O)c2cccc3ccccc23)sc2c1CCCC2; result = 103%
Structure (SMILES) = Cc1cc2ncc(-c3ccccc3)nc2cc1C; result = 96.9%
Structure (SMILES) = COc1cc2ncnc(Nc3cccc(Cl)c3)c2cc1OC; result = 83%
Structure (SMILES) = CCN(CC)CCNC(=O)c1c(C)[nH]c(/C=C2\C(=O)Nc3ccc(Cl)cc32)c1C; result = 58.9%
Structure (SMILES) = COc1cc2c(cc1OC)-c1[nH]nc(Nc3cccc(F)c3)c1C2; result = 93.2%
Structure (SMILES) = COc1cc2ncnc(Nc3ccc(O)c(Br)c3)c2cc1OC; result = 97.7%
Structure (SMILES) = O=C1C(Cl)=C(N2C(=O)CCC2=O)C(=O)c2ccccc21; result = 108%
Structure (SMILES) = CCN(CC)C(=O)c1ccc(Nc2nc(OCC3CCCCC3)c3[nH]cnc3n2)cc1; result = 49.1%
Structure (SMILES) = Cc1nc2cc3nc(-c4cccs4)cnc3cc2n1C; result = 114%
Structure (SMILES) = CN([C@@H](Cc1ccc(OS(=O)(=O)c2cccc3cnccc23)cc1)C(=O)N1CCN(c2ccccc2)CC1)S(=O)(=O)c1cccc2cnccc12; result = 103%
Structure (SMILES) = CCN(CC)CCNC(=O)c1c(C)[nH]c(/C=C2\C(=O)Nc3ccc(F)cc32)c1C; result = 81.6%
Structure (SMILES) = Ic1cccc(CSc2nnc(-c3ccncc3)o2)c1; result = 99.3%
Structure (SMILES) = Cn1nc2c3c(cccc31)C(=O)c1ccccc1-2; result = 102%
Structure (SMILES) = O=C1c2ccccc2-c2n[nH]c3cccc1c23; result = 89.1%
Structure (SMILES) = O=C(Nc1cccc(Nc2nccc(Nc3cccc(C(F)(F)F)c3)n2)c1)C1CC1; result = 89.2%
Structure (SMILES) = O=c1cc(-c2cccc3c2Sc2ccccc2S3)oc(N2CCOCC2)c1; result = 98.8%
Structure (SMILES) = Cc1cn(-c2cc(NC(=O)c3ccc(C)c(Nc4nccc(-c5cccnc5)n4)c3)cc(C(F)(F)F)c2)cn1; result = 97.7%
Structure (SMILES) = CN(C)C[C@H]1CCn2c(c(C3=C(c4cn(C)c5ccccc45)C(=O)NC3=O)c3ccccc32)C1; result = 100%
Structure (SMILES) = O=C(NC(NC(=S)Nc1ccc(F)c([N+](=O)[O-])c1)C(Cl)(Cl)Cl)C(c1ccccc1)c1ccccc1 (stereo not drawn); result = 104%

Study 3 — observed: binding; concentration: 1 µM; measurement: remaining binding
Compound: CN1CCN(C(=O)c2ccc(NC(=O)Nc3ccc(N(C)c4ccnc(Nc5ccc(CS(C)(=O)=O)cc5)n4)cc3)cc2)CC1
target = Mitogen-activated protein kinase kinase kinase 13 (MAP3K13, Homo sapiens, UniProt O43283); assay = competition with immobilised ligand; result = 70%
target = Fibroblast growth factor receptor 4 (FGFR4, Homo sapiens, UniProt P22455); result = 100%
target = Mitogen-activated protein kinase 1 (MAPK1, Homo sapiens, UniProt P28482); result = 100%
target = Tyrosine-protein kinase FRK (FRK, Homo sapiens, UniProt P42685); assay = competition with immobilised ligand; result = 80%
target = Casein kinase I isoform delta (CSNK1D, Homo sapiens, UniProt P48730); result = 99%
target = Cyclin-dependent kinase 11B (CDK11B, Homo sapiens, UniProt P21127); assay = competition with immobilised ligand; result = 67%
target = BDNF/NT-3 growth factors receptor (NTRK2, Homo sapiens, UniProt Q16620); assay = competition with immobilised ligand; result = 11%
target = Serine/threonine-protein kinase Nek4 (NEK4, Homo sapiens, UniProt P51957); result = 85%
target = Mitogen-activated protein kinase 13 (MAPK13, Homo sapiens, UniProt O15264); assay = competition with immobilised ligand; result = 100%
target = Ephrin type-A receptor 6 (EPHA6, Homo sapiens, UniProt Q9UF33); assay = competition with immobilised ligand; result = 76%
target = Ephrin type-A receptor 4 (EPHA4, Homo sapiens, UniProt P54764); assay = competition with immobilised ligand; result = 85%
target = Casein kinase II subunit alpha' (CSNK2A2, Homo sapiens, UniProt P19784); result = 63%
target = Tyrosine-protein kinase ITK/TSK (ITK, Homo sapiens, UniProt Q08881); result = 98%
target = Death-associated protein kinase 3 (DAPK3, Homo sapiens, UniProt O43293); result = 100%
target = Serine/threonine-protein kinase Sgk1 (SGK1, Homo sapiens, UniProt O00141); result = 57%

Further values, each from its own experiment
Structure (SMILES) = CC(=O)Nc1nc(CN2CCC[C@H](Cc3cc(C)nc(C)c3)C2)cs1; tested on = 5-hydroxytryptamine receptor 5A (HTR5A, Homo sapiens, UniProt P47898); assay = ligand displacement; conditions = 10 µM; measurement = inhibition; result = 17.8%
Structure (SMILES) = Cn1cncc1[C@@](O)(COc1ccc(C#N)cc1-c1ccc(OC(F)(F)F)cc1)c1ccc(C#N)cc1; tested on = HEK293T; assay = high-content imaging; conditions = 10 µM, 0 h; measurement = cells with high Hoechst intensity; result = 6.6% and 14.9%
Structure (SMILES) = Cc1cc(-n2nc(Cc3cc(F)cc(C(F)(F)F)c3)nc2C)ccc1C(N)=O; tested on = 5-hydroxytryptamine receptor 2B (HTR2B, Homo sapiens, UniProt P41595); assay = binding, radioligand binding; conditions = 10 µM; measurement = inhibition; result = -2.51%
Structure (SMILES) = CCC(=NO)C(C)=Cc1ccc(F)c(C)c1; tested on = Tyrosine-protein kinase ABL1 (ABL1, Homo sapiens, UniProt P00519, F317I); assay = KINOMEscan; conditions = 1 µM, F317I mutant, phosphorylated; how to read = reference: control; measurement = remaining binding; result = 100%

A few entries again (study 2):
Structure (SMILES) = c1ccc(-c2[nH]ncc2-c2ccnc3ccccc23)nc1; result = 97.1%
Structure (SMILES) = Nc1cccc(-c2cc3c(Oc4cccc(O)c4)ncnc3[nH]2)c1; result = 86.9%
Structure (SMILES) = Cc1cn(-c2cc(NC(=O)c3ccc(C)c(Nc4nccc(-c5cccnc5)n4)c3)cc(C(F)(F)F)c2)cn1; result = 97.7%
Structure (SMILES) = CN(C)C[C@H]1CCn2c(c(C3=C(c4cn(C)c5ccccc45)C(=O)NC3=O)c3ccccc32)C1; result = 100%
Structure (SMILES) = CCN(CC)CCNC(=O)c1c(C)[nH]c(/C=C2\C(=O)Nc3ccc(Cl)cc32)c1C; result = 58.9%
Structure (SMILES) = Ic1cccc(CSc2nnc(-c3ccncc3)o2)c1; result = 99.3%
Structure (SMILES) = COc1cc2ncnc(Nc3cccc(Cl)c3)c2cc1OC; result = 83%
